Assay results pooled from the literature.
Protocols differ between the studies behind these lines. Values after ≈ are worked out from the molar mass of the structure shown.

Structure (SMILES) | organism | assay | system | conditions | scale | quantity | result
CN(Cc1cc(C2CC2)on1)C(=O)c1cccc(-c2ccc3c(c2)CCO3)c1 | Cryptococcus neoformans |  |  |  | relative to: H99 over acl1∆ mutant | MIC ratio | 8 fold
C/C=C/c1ccc(OC(C)=O)c(OC)c1 | Spodoptera frugiperda |  |  | topical, larvae |  | LD50 | < 1000 mg/kg
Cc1nc2c(cnn2C(C)C)cc1C(=O)NCc1ccc(C(C)O)c(C)n1 (stereo not drawn) | Drosophila melanogaster |  | APP Alzheimer model adult flies | oral in food, 100 µM, dosed from embryogenesis |  | median survival | 31 days
CC(=O)c1c(O)c(C)c(O)c2c1OC1=CC(=O)/C3=C(/C)N[C@H](C(=O)O)CC1=CC=C(O)C=C[C@]2(C)C3=O | Candida tropicalis | broth microdilution | ATCC 750 fluconazole and amphotericin B resistant | 24 and 48 h |  | MIC99 | 11.8 µM (≈ 5.99 µg/mL)
CC[C@@H](C)[C@@H](NC(=O)[C@@H](C)NC(=O)[C@@H](CCCCN)NC(=O)[C@@H](CC(C)C)NC(=O)[C@@H](C)NC(=O)[C@H](NC(=O)[C@@H](Cc1c[nH]cn1)NC(=O)[C@@H](CC(C)C)NC(=O)[C@H](NC(=O)[C@H](NC(=O)[C@@H](CCCCN)NC(=O)[C@@H](CCCCN)NC(=O)[C@@H](C)NC(=O)[C@@H](CO)NC(=O)[C@@H](CCCCN)NC(=O)[C@@H](Cc1ccccc1)NC(=O)[C@H](NC(=O)[C@@H](CCCCN)NC(=O)[C@@H](CC(C)C)NC(=O)[C@@H](Cc1ccccc1)NC(=O)[C@@H](CO)NC(=O)[C@@H](CCCCN)NC(=O)[C@@H](Cc1c[nH]c2ccccc12)NC(=O)[C@@H](CCCCN)NC(C)=O)[C@H](C)O)[C@H](C)O)C(C)C)[C@H](C)O)C(=O)N[C@H](CO)C(=O)N[C@H](CO)C(N)=O | Absidia corymbifera |  | clinical isolate | 48 h, 30 °C |  | MIC50 | 12.5 µg/mL (≈ 4.18 µM)
CCn1c2ccccc2c2cc(/C=N/NC(=O)Cn3ccc(=O)c4ccccc43)ccc21 | Bipolaris maydis | microbial growth |  | 50 µg/mL |  | inhibition | 15.6%
CC[C@H](C)[C@H](NC(=O)[C@H](CCCCN)NC(=O)[C@H](CCCCN)NC(=O)[C@H](CC(C)C)NC(=O)[C@H](CCCCN)NC(=O)[C@H](CCC(=O)O)NC(=O)[C@H](CCCCN)NC(=O)[C@@H](NC(=O)[C@H](CCCCN)NC(=O)[C@H](CC(N)=O)NC(=O)[C@H](CCCNC(=N)N)NC(=O)[C@H](Cc1ccccc1)NC(=O)[C@H](CCCCN)NC(=O)[C@H](CCCNC(=N)N)NC(=O)[C@H](CC(C)C)NC(=O)[C@H](CCCNC(=N)N)NC(=O)[C@H](CCCCN)NC(=O)[C@H](CCCNC(=N)N)NC(=O)[C@H](CC(C)C)NC(=O)[C@@H](N)CC(C)C)[C@@H](C)CC)C(=O)NCC(=O)N[C@@H](CCC(N)=O)C(=O)N[C@@H](CCCCN)C(=O)N[C@H](C(=O)N[C@@H](CCC(N)=O)C(=O)NCC(=O)N[C@@H](Cc1ccccc1)C(=O)N[C@H](C(=O)N1CCC[C@H]1C(=O)N[C@@H](CCCCN)C(=O)N[C@@H](CC(C)C)C(=O)N[C@H](C(=O)N1CCC[C@H]1C(=O)N[C@@H](CCCNC(=N)N)C(=O)N[C@H](C(=O)N[C@@H](CCC(=O)O)C(=O)N[C@@H](CO)C(=O)O)[C@@H](C)O)C(C)C)C(C)C)[C@@H](C)CC | Alcaligenes faecalis | inhibition zone | CGMCC 1.184 |  |  | lethal concentration | 2.31 µM
C/C=C/c1ccc(OCc2ccccc2)c(OC)c1 | Spodoptera frugiperda |  | larvae | 100 µg/mL | relative to: untreated control | antifeedant index | 10.4%
COc1ccc(Br)cc1/C=N/NC(=O)Cn1ccc(=O)c2ccccc21 | Bipolaris maydis | microbial growth |  | 50 µg/mL |  | inhibition | 13.3%
CC(C)C[C@@H]1NC(=O)[C@H](CCCCN)NC(=O)[C@H](C(C)C)NC(=O)[C@H](CCCCN)NC(=O)[C@H](CC(C)C)NC(=O)[C@@H]2CCCN2C(=O)[C@@H](Cc2ccc(O)cc2)NC(=O)[C@H](C(C)C)NC(=O)[C@H](CCCCN)NC(=O)[C@H](CCCCN)NC(=O)[C@H](C(C)C)NC(=O)[C@@H]2CCCN2C(=O)[C@@H](Cc2ccc(O)cc2)NC1=O | Gram-negative bacteria |  |  | 24 h, 7 strains |  | MIC geometric mean | 29 µg/mL (≈ 18.6 µM)
CC[C@H](C)[C@H](NC(=O)[C@H](CCCCN)NC(=O)[C@H](CCCCN)NC(=O)[C@H](CC(C)C)NC(=O)[C@H](CCCCN)NC(=O)[C@H](CCC(=O)O)NC(=O)[C@H](CCCCN)NC(=O)[C@@H](NC(=O)[C@H](CCCCN)NC(=O)[C@H](CC(N)=O)NC(=O)[C@H](CCCNC(=N)N)NC(=O)[C@H](Cc1ccccc1)NC(=O)[C@H](CCCCN)NC(=O)[C@H](CCCNC(=N)N)NC(=O)[C@H](CC(C)C)NC(=O)[C@H](CCCNC(=N)N)NC(=O)[C@H](CCCCN)NC(=O)[C@H](CCCNC(=N)N)NC(=O)[C@@H](N)CC(C)C)[C@@H](C)CC)C(=O)NCC(=O)N[C@@H](CCC(N)=O)C(=O)N[C@@H](CCCCN)C(=O)N[C@H](C(=O)N[C@@H](CCC(N)=O)C(=O)NCC(=O)N[C@@H](Cc1ccccc1)C(=O)N[C@H](C(=O)N1CCC[C@H]1C(=O)N[C@@H](CCCCN)C(=O)N[C@@H](CC(C)C)C(=O)O)C(C)C)[C@@H](C)CC | Streptococcus sanguinis | inhibition zone | ATCC 1.2497 | LB agar, overnight |  | lethal concentration | 1.75 µM
CC(=O)O[C@H]1C[C@@H](C)O[C@H]2O[C@@H]3C[C@@H]4CC[C@@H]5[C@H](CC[C@]6(C)[C@@H](C7=CC(=O)OC7)CC[C@]56O)[C@@]4(C)C[C@H]3O[C@]21O | Schistosoma mansoni | microscopic viability score | adult worms | 0.1 µM, 72 h |  | viability effect | 29%
CC[C@H](C)[C@H](NC(=O)[C@H](CCCCN)NC(=O)[C@H](CCCCN)NC(=O)[C@H](CC(C)C)NC(=O)[C@H](CCCCN)NC(=O)[C@H](CCC(=O)O)NC(=O)[C@H](CCCCN)NC(=O)[C@@H](NC(=O)[C@H](CCCCN)NC(=O)[C@H](CC(N)=O)NC(=O)[C@H](CCCNC(=N)N)NC(=O)[C@H](Cc1ccccc1)NC(=O)[C@H](CCCCN)NC(=O)[C@H](CCCNC(=N)N)NC(=O)[C@H](CC(C)C)NC(=O)[C@H](CCCNC(=N)N)NC(=O)[C@H](CCCCN)NC(=O)[C@H](CCCNC(=N)N)NC(=O)[C@H](CC(C)C)NC(=O)[C@@H](N)CCCNC(=N)N)[C@@H](C)CC)C(=O)NCC(=O)N[C@@H](CCC(N)=O)C(=O)N[C@@H](CCCCN)C(=O)N[C@H](C(=O)N[C@@H](CCC(N)=O)C(=O)NCC(=O)N[C@@H](Cc1ccccc1)C(=O)N[C@H](C(=O)N1CCC[C@H]1C(=O)N[C@@H](CCCCN)C(=O)N[C@@H](CC(C)C)C(=O)N[C@@H](CCC(N)=O)C(=O)N1CCC[C@H]1C(=O)N[C@@H](CO)C(=O)N[C@@H](CCCCN)C(=O)N[C@@H](CCC(N)=O)C(=O)N[C@@H](CO)C(=O)O)C(C)C)[C@@H](C)CC | Streptococcus sanguinis | inhibition zone | ATCC 1.2497 | LB agar, overnight |  | lethal concentration | 3.83 µM
CC[C@H](C)[C@H](NC(=O)[C@H](CCSC)NC(=O)[C@H](CO)NC(=O)[C@H](C)NC(=O)CNC(=O)[C@@H](NC(=O)[C@@H](NC(=O)[C@H](CC(C)C)NC(=O)[C@H](CC(C)C)NC(=O)CNC(=O)CNC(=O)[C@H](C)NC(=O)[C@@H](NC(=O)CNC(=O)[C@H](CC(C)C)NC(=O)[C@H](CCC(N)=O)NC(=O)[C@H](CC(C)C)NC(=O)CNC(=O)[C@H](Cc1ccccc1)NC(=O)[C@H](CCCNC(=N)N)NC(=O)[C@H](C)N)[C@@H](C)O)[C@@H](C)O)[C@@H](C)CC)C(=O)N[C@@H](CCC(N)=O)C(=O)N[C@@H](CCCCN)C(=O)N[C@@H](CC(C)C)C(=O)O | Gram-negative bacteria | MIC |  | concentration not given |  | antibacterial activity | active
C=CCc1ccc(OCC=C(C)C)c(OC)c1 | Spodoptera frugiperda |  | larvae | 100 µg/mL | relative to: untreated control | antifeedant index | 37.2%
CC(C)C[C@@H]1NC(=O)[C@H](CCCCN)NC(=O)[C@H](C(C)C)NC(=O)[C@@H]2CCCN2C(=O)[C@@H](Cc2ccc(O)cc2)NC(=O)[C@H](CC(C)C)NC(=O)[C@H](CCCCN)NC(=O)[C@H](C(C)C)NC(=O)[C@H](CCCCN)NC(=O)[C@H](CC(C)C)NC(=O)[C@@H]2CCCN2C(=O)[C@@H](Cc2ccc(O)cc2)NC(=O)[C@H](C(C)C)NC(=O)[C@H](CCCCN)NC1=O | Gram-negative bacteria |  |  | 24 h, 7 strains |  | MIC geometric mean | 95.1 µg/mL (≈ 56.9 µM)
O=C(Cc1csc2nc(-c3ccc(Br)cc3)cn12)NN=C1CCCC1 | Punta Toro virus | viral cytopathicity, microscopy | Vero |  |  | EC50 | > 100 µg/mL
CCCCCCCCCCCCCC(=O)N[C@H](CCN)C(=O)N[C@H](C(=O)N[C@@H](CCN)C(=O)N[C@@H](CC(C)C)C(=O)N[C@H]1CCNC(=O)[C@H](CC(=O)O)NC(=O)[C@H](C(C)C)NC(=O)[C@@H](Cc2ccc(O)cc2)NC(=O)[C@H](CCN)NC(=O)[C@H](CC(C)C)NC(=O)[C@@H](Cc2ccccc2)NC1=O)[C@@H](C)O | ESKAPE pathogens |  |  | concentration not given | relative to: MIC with serum over without | MIC fold change with serum | 4 fold
Cc1cc(N2CCC(C#N)(C3(C)CC3)C2=O)cc(C(=O)NCc2cc(F)cc(-c3cnn(C)c3)c2)n1 (racemic) | Plasmodium falciparum |  |  | added: selection pressure 3 × IC50 |  | minimum inoculum for resistance | 800000 parasites
C=Cc1cc(OC)c2c(c1)c(=O)oc1c2cc(OC)c2c(O)ccc([C@@H]3O[C@H](C)[C@H](O)[C@@](C)(O)[C@H]3O)c21 | Staphylococcus aureus | crystal violet | MRSA USA300 | 8 × MIC, 24 h |  | biofilm eradication | 95%
C=C(C)[C@@H]1CC[C@]2(COS(=O)(=O)c3ccc(C)cc3)CC[C@]3(C)[C@H](CC[C@@H]4[C@@]5(C)CCCNC(C)(C)[C@@H]5CC[C@]43C)[C@@H]12 | Human cytomegalovirus |  | HFF, AD169 |  | relative to: CC50 over EC50 | selectivity index | < 3
CC(C)C[C@H](NC(=O)[C@H](C)NC(=O)[C@H](CCCNC(=N)N)NC(=O)[C@H](CO)NC(=O)[C@H](Cc1ccc(O)cc1)NC(=O)[C@H](C)NC(=O)[C@H](CCCNC(=N)N)NC(=O)[C@H](CCCNC(=N)N)NC(=O)[C@H](CCCNC(=N)N)NC(=O)[C@H](CCC(N)=O)NC(=O)[C@H](CCCNC(=N)N)NC(=O)[C@H](CCCNC(=N)N)NC(=O)[C@H](CCCCN)NC(=O)[C@H](CCCCN)NC(=O)[C@@H](N)CCCNC(=N)N)C(=O)N[C@@H](CO)C(=O)N[C@@H](CCCNC(=N)N)C(=O)N[C@@H](CCC(N)=O)C(=O)N[C@@H](CC(C)C)C(=O)N[C@@H](C)C(=O)N[C@@H](CO)C(=O)O | enterovirus A71 | western blot | RD | 50 µM, 2 h pretreatment then 9 h |  | VP1 protein level reduction | > 90%
C=CCc1ccc(OCc2ccccc2)c(OC)c1 | Spodoptera frugiperda |  | larvae | 25 µg/mL | relative to: untreated control | antifeedant index | 19%
CC(C)C[C@H](NC(=O)CNC(=O)[C@H](Cc1ccccc1)NC(=O)[C@H](Cc1ccccc1)NC(=O)[C@H](CCCNC(=N)N)NC(=O)[C@H](CCCCN)NC(=O)[C@H](CO)NC(=O)[C@H](CC(N)=O)NC(=O)[C@H](CC(C)C)NC(=O)CNC(=O)[C@H](CO)NC(=O)[C@@H](NC(=O)[C@@H](N)CC(C)C)C(C)C)C(=O)N[C@@H](CCCCN)C(=O)NCC(=O)NCC(=O)N[C@@H](CC(N)=O)C(=O)N[C@@H](CC(C)C)C(=O)N[C@@H](Cc1ccccc1)C(=O)N[C@@H](CCCCN)C(=O)N[C@@H](CCCCN)C(=O)N[C@@H](C)C(=O)N[C@@H](CC(C)C)C(=O)N[C@@H](CCCCN)C(=O)N[C@@H](CC(N)=O)C(=O)N[C@H](C(=O)N[C@@H](CO)C(=O)N[C@H](C(=O)N[C@@H](Cc1ccccc1)C(=O)NCC(=O)N[C@@H](CCCCN)C(=O)N[C@@H](C)C(=O)NCC(=O)N[C@H](C(=O)N[C@H](C(=O)N[C@@H](CO)C(=O)N[C@@H](C)C(=O)N[C@@H](CC(C)C)C(=O)N[C@@H](CCCNC(=N)N)C(=O)O)[C@@H](C)O)C(C)C)C(C)C)C(C)C | Gram-negative bacteria | MIC |  | concentration not given |  | antibacterial activity | active

Repeated from above:
Structure (SMILES) | organism | assay | system | conditions | scale | quantity | result
C=Cc1cc(OC)c2c(c1)c(=O)oc1c2cc(OC)c2c(O)ccc([C@@H]3O[C@H](C)[C@H](O)[C@@](C)(O)[C@H]3O)c21 | Staphylococcus aureus | crystal violet | MRSA USA300 | 8 × MIC, 24 h |  | biofilm eradication | 95%
Cc1nc2c(cnn2C(C)C)cc1C(=O)NCc1ccc(C(C)O)c(C)n1 (stereo not drawn) | Drosophila melanogaster |  | APP Alzheimer model adult flies | oral in food, 100 µM, dosed from embryogenesis |  | median survival | 31 days
CCn1c2ccccc2c2cc(/C=N/NC(=O)Cn3ccc(=O)c4ccccc43)ccc21 | Bipolaris maydis | microbial growth |  | 50 µg/mL |  | inhibition | 15.6%
C=CCc1ccc(OCC=C(C)C)c(OC)c1 | Spodoptera frugiperda |  | larvae | 100 µg/mL | relative to: untreated control | antifeedant index | 37.2%
